Values quoted from earlier work that unrelated publications cite.
± gives the spread as reported.
UniProt Q14164, sequence (whole entry, looked up): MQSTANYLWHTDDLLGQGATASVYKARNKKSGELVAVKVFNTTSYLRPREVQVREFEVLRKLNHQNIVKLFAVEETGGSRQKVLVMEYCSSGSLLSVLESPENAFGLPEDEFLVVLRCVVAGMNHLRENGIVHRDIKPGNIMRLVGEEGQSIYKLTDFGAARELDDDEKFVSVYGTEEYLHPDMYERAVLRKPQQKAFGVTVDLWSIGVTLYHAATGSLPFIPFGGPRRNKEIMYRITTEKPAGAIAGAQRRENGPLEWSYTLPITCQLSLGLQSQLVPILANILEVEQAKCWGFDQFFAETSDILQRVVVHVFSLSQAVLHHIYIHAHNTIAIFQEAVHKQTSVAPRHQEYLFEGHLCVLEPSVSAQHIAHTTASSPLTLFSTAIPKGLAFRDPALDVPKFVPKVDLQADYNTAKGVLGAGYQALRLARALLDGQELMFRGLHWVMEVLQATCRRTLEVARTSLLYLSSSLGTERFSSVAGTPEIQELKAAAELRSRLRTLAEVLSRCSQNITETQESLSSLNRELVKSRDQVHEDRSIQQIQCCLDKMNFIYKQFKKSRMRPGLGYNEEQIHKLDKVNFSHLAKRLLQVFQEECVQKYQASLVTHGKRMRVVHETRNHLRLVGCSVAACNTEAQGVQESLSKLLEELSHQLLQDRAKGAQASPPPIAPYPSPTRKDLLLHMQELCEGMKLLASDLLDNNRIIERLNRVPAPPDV

With CC(C)[C@H](C(=O)Nc1ccc(C(=O)NO)cc1)c1ccccc1 the AUC(0-inf) was 4.4 µM·h (human subjects; oral, 20 mg).
The AUC(0-inf) of CNC(=O)c1c(C)oc2cc(Oc3ncnc4cc(OC)c(OC)cc34)ccc12 is reported as 5960 ng·h/mL (healthy human subjects, plasma; 5 mg, single dose).
COc1cc2c(Oc3ccc4[nH]c(C)cc4c3F)ccnc2cc1OCC1(N)CC1 has an AUC(0-inf) of 1580 ± 470 ng·h/mL (human; 16 mg single dose).
With Cc1cc(C)c(CNC(=O)c2cc(Cl)c3c(c2C)O[C@@](C)([C@H]2CC[C@H](N(C)C)CC2)O3)c(=O)[nH]1 the AUC(0-inf) was 5870 ng·h/mL (human; 100 mg).
The AUC(0-inf) of CCCc1nn(C)c2c(=O)[nH]c(-c3cc(S(=O)(=O)N4CCN(C)CC4)ccc3OCC)nc12 is reported as 1420 ng·h/mL (healthy male humans; oral, 100 mg, geometric mean, given alone).
For CNCc1cc(-c2ccccc2F)n(S(=O)(=O)c2cccnc2)c1, the AUC(0-inf) was 158 ng·h/mL (human; 20 mg, single dose).
For C[C@@H](Oc1ccc(S(C)(=O)=O)cc1C(=O)N1C[C@@H]2C[C@]2(c2cc(C(F)(F)F)on2)C1)C(F)(F)F, the AUC(0-inf) was 2.02 µM·h (human; oral, 5 mg, solution, fasted, single dose).
C=CC(=O)Nc1cc(Nc2nccc(-c3cn(C)c4ccccc34)n2)c(OCC(F)(F)F)nc1N(C)CCN(C)C gave an AUC(0-inf) of 907 ng·h/mL (healthy human; 80 mg, single dose).
Cc1ccccc1CN1C(=O)C2=C(CCN(Cc3ccccc3)C2)N2CCN=C12 has an AUC(0-inf) of 18800 ng·h/mL (human; oral, 625 mg, high-fat meal, single dose).
Cc1nsc(-c2nnc3n2CCN(C(=O)c2ccc(F)cc2)[C@@H]3C)n1 gave an AUC(0-inf) of 3960 ng·h/mL (human; oral, 45 mg, single dose, formulation).
CC(C)c1nc(N(C)S(C)(=O)=O)nc(-c2ccc(F)cc2)c1/C=C/[C@@H](O)C[C@@H](O)CC(=O)O has an AUC(0-inf) of 88.2 ng·h/mL (BCRP substrate; human, plasma; dose not given, together with: without pirtobrutinib).
The AUC(0-inf) of C#C[C@]1(O)CC[C@H]2[C@@H]3CCC4=CC(=NO)CC[C@@H]4[C@H]3CC[C@@]21CC (mixture of isomers) is reported as 9.72 ng·h/mL (human; 0.18 mg norgestimate single dose, fed).
Under AUC(0-inf), CCOC(=O)C1=C(COCCN)NC(C)=C(C(=O)OC)C1c1ccccc1Cl (stereo not drawn) is recorded as “no effect” (refers to: tacrolimus; human CYP3A5 non-expressors; dose not given, together with: tacrolimus).
Nc1cc(C(F)(F)F)c(-c2nc(N3CCOCC3)nc(N3CCOCC3)n2)cn1 gave a remaining activity of 100% (IKBKE (Homo sapiens, UniProt Q14164); enzyme activity; 10 µM; reference: untreated).
C[C@H]1CO[C@@H]2Cn3cc(C(=O)NCc4ccc(F)cc4F)c(=O)c(O)c3C(=O)N12 gave an AUC(0-inf) of 51600 ng·h/mL (human; oral tablet, two 5 mg tablets, geometric mean fed).

Excerpt of the above:
For CNCc1cc(-c2ccccc2F)n(S(=O)(=O)c2cccnc2)c1, the AUC(0-inf) was 158 ng·h/mL (human; 20 mg, single dose).
